Results of several laboratories.
Parts stem from different laboratories: compare values within a part only. Values joined by “and” are separate records of one study, mostly repeats; a detail may differ.
Sequence of UniProt P07333 (whole entry, looked up): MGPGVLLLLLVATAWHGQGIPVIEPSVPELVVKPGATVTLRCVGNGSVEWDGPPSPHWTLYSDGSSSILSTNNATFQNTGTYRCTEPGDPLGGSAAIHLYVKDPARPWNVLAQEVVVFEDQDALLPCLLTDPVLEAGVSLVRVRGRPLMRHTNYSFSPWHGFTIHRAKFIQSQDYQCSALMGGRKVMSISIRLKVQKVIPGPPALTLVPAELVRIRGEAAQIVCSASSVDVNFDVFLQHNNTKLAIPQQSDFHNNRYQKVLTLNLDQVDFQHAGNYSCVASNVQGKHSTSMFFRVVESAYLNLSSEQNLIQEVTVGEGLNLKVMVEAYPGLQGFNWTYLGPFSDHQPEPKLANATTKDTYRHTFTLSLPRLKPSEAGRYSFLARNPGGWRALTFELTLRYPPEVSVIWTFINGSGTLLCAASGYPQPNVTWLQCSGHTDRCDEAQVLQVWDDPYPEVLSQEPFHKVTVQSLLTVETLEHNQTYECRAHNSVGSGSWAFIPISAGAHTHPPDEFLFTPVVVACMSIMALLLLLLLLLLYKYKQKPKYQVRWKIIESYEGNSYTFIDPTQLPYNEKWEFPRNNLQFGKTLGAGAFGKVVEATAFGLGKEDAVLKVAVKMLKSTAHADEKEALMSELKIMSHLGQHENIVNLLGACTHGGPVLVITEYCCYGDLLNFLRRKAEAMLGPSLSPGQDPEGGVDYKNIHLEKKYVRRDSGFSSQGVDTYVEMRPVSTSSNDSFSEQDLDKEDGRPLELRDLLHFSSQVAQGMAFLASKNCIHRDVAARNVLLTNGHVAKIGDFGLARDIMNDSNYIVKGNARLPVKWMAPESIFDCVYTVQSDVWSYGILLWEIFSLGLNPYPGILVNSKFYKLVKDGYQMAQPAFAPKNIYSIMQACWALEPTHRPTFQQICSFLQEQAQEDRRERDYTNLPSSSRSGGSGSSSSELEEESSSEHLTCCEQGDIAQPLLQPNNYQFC
Sequence of UniProt O14578 (whole entry, looked up): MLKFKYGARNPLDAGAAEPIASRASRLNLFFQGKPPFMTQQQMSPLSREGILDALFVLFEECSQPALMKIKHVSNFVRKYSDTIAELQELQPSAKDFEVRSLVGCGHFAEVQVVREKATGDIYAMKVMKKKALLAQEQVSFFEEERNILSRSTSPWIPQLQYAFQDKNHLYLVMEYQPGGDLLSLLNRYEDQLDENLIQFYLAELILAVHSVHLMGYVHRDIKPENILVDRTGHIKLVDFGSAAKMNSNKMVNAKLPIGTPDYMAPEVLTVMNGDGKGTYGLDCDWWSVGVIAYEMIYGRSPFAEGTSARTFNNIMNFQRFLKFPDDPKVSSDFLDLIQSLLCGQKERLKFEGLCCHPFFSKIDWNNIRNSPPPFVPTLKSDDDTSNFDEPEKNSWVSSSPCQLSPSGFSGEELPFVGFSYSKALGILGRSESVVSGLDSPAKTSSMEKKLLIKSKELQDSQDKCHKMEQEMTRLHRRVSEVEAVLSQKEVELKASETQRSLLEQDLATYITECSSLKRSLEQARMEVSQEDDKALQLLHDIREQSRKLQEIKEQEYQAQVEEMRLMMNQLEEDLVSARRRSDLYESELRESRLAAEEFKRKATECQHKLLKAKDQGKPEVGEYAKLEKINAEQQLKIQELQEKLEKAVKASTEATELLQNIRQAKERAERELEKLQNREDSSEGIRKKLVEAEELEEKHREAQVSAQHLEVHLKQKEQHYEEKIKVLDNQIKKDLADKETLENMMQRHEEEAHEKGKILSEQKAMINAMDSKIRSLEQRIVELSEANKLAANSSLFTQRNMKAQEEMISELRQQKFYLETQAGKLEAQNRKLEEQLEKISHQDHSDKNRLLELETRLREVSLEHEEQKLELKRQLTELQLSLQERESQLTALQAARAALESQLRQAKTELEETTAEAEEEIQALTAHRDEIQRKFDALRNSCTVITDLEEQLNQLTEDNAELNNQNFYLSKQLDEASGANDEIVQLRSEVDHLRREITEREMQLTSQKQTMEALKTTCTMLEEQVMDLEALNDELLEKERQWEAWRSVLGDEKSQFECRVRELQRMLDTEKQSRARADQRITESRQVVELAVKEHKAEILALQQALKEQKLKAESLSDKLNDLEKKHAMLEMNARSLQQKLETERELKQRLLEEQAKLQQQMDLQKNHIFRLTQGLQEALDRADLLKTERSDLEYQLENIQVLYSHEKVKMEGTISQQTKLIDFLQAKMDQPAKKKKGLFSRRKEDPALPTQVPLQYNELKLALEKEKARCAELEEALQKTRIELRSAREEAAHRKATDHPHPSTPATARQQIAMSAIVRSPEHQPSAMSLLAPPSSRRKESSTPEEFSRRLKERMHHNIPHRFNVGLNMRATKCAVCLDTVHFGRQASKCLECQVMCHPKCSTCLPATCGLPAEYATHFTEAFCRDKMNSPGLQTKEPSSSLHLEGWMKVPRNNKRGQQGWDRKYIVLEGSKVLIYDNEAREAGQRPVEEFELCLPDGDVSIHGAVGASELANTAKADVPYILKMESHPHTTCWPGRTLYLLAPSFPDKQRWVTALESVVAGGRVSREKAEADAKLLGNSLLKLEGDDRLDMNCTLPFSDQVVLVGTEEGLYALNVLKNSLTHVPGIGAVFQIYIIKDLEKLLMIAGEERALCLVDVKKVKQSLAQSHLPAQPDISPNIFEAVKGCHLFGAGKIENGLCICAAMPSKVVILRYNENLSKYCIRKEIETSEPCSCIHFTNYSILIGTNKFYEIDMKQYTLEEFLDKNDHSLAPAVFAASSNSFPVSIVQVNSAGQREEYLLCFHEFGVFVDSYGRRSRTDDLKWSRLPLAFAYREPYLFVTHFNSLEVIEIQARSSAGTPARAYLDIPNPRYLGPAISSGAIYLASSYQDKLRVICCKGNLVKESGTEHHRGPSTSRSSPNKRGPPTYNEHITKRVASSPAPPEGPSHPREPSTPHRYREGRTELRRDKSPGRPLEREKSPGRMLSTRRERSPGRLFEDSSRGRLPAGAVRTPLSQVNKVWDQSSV

Series 1 — SMILES: O=C(Nc1ccccc1)Nc1cccc(Oc2ccc3nccn3n2)c1; read-out: enzyme activity; mode: inhibitor; method: radiometric
target	IC50
TEK (Homo sapiens, UniProt Q02763)	> 10000 nM
CIT (Homo sapiens, UniProt O14578)	3000 nM
CSF1R (Homo sapiens, UniProt P07333)	230 nM
KIT (Homo sapiens, UniProt P10721)	11 nM
MAP3K19 (Homo sapiens, UniProt Q56UN5)	1300 nM
PDGFRB (Homo sapiens, UniProt P09619)	1200 nM

Series 2
SMILES: Cc1ccc(O)c(C)c1-c1cnc2[nH]c(-c3cnc(N4CCC(CN5CCN(c6ccc(NC7CCC(=O)NC7=O)cc6F)CC5)CC4)nc3)cc2c1C#N (centres unmarked)
Target: Membrane-associated tyrosine- and threonine-specific cdc2-inhibitory kinase (PKMYT1, Homo sapiens, UniProt Q99640)
Sequence of UniProt Q99640 (whole entry, looked up): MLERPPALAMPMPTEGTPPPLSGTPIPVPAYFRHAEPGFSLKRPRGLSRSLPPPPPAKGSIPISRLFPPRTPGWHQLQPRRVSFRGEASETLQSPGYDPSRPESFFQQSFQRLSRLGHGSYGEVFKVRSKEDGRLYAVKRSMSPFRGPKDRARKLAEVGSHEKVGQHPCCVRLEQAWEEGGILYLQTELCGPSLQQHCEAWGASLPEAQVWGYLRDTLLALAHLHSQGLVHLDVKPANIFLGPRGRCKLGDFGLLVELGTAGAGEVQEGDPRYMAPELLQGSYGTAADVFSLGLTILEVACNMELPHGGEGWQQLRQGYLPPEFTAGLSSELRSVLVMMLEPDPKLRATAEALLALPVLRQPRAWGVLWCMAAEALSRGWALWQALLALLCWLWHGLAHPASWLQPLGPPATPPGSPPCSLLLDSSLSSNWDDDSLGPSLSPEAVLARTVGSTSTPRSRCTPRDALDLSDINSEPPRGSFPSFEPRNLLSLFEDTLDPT
assay	setting	inhibition [%]
cell-free assay, inhibitor, TR-FRET	1 µM	97.5
cell-free assay, inhibitor, TR-FRET	51 pM	-10.4
cell-free assay, inhibitor, TR-FRET	0.1111 µM	96.6
–	0.00412 µM	44.7
–	0.1111 µM	96.5
–	0.03704 µM	89.3
–	0.00046 µM	2.83
cell-free assay, inhibitor, TR-FRET	0.3333 µM	99.6
–	0.01235 µM	75.1
cell-free assay, inhibitor, TR-FRET	4.12 nM	45.9
cell-free assay, inhibitor, TR-FRET	152 pM	-5.48
cell-free assay, inhibitor, TR-FRET	12.35 nM	72.3

Series 3 — read-out: thermal unfolding; method: differential scanning fluorimetry; tested at: 5.5 µM; direction: higher = more unfolded
Structure (SMILES): C[C@@H]1CN(c2ccc(-c3cc(C(=O)NCCOCCOCCOCCOCCOCCOCCNC(=O)/C=C/c4[nH]cc(C(=O)N[C@@H](CC(N)=O)c5ccc(F)c(Cl)c5)c4-c4ccc(Cl)cc4F)ccc3F)cc2NC(=O)c2ccc(F)cc2C(F)(F)F)C[C@H](C)N1C
WDR5: WD repeat-containing protein 5 (WDR5, Homo sapiens, UniProt P61964)
DCAF1: DDB1- and CUL4-associated factor 1 (DCAF1, Homo sapiens, UniProt Q9Y4B6)
Sequence of UniProt Q9Y4B6 (whole entry, looked up): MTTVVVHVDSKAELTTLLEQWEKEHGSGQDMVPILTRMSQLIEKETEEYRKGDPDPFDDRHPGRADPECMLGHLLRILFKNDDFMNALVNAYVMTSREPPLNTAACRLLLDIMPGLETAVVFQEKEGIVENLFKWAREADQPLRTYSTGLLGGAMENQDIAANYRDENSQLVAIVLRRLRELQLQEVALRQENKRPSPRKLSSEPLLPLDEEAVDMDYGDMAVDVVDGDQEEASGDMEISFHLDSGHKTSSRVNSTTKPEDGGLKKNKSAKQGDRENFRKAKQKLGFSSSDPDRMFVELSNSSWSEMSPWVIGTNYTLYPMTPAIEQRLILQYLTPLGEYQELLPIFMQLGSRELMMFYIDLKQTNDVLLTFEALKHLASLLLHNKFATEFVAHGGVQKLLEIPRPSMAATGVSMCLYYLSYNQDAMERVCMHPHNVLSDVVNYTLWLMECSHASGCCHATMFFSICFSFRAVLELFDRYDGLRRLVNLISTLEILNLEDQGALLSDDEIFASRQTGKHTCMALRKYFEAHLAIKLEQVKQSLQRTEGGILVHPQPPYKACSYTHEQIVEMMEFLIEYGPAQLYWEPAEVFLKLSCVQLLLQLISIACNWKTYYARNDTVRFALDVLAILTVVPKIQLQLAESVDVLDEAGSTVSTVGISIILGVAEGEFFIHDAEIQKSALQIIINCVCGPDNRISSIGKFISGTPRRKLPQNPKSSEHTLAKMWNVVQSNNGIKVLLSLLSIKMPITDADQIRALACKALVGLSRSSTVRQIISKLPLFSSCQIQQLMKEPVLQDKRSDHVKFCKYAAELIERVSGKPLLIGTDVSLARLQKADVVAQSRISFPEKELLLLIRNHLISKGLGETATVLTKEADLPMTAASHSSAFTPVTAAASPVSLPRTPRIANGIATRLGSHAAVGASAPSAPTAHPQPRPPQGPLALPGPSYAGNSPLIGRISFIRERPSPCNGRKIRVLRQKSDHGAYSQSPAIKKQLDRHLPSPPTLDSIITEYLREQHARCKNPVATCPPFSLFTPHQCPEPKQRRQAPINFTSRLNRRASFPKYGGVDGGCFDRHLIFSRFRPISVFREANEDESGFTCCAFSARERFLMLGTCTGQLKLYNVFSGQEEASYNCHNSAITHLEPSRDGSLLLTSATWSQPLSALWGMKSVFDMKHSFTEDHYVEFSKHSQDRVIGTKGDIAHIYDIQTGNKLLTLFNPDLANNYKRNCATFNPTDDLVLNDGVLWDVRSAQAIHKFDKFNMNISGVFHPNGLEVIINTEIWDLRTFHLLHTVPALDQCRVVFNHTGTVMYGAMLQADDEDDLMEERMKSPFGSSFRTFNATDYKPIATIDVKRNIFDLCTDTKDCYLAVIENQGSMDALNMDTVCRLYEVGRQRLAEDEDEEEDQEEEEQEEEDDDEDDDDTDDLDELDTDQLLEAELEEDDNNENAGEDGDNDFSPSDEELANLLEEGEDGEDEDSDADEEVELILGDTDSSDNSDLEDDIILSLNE
target	setting	SYPRO Orange fluorescence [a.u.]
WDR5	40 °C	14200
WDR5	28.4 °C	13500
DCAF1	45.2 °C	14600
WDR5	80.61 °C	65500
DCAF1	28.8 °C	8090
DCAF1	41.6 °C	12600
WDR5	91.41 °C	52700
WDR5	66.81 °C	18800
DCAF1	91.01 °C	31600
WDR5	58.21 °C	15700
DCAF1	86.41 °C	34600

Series 4 — read-out: kinase activity
SMILES: CNc1ncc2cc(-c3cc(OC)cc(OC)c3Cl)c(=O)n(CCc3ccc(NC(=O)C(C#N)=CC(C)(C)N4CCOCC4)cc3)c2n1
target	setting	inhibition
SIK1 (Homo sapiens, UniProt P57059)	0.1 µM	-2%
CDK1 (Homo sapiens, UniProt P06493)	0.1 µM	6%
CDC42BPB (Homo sapiens, UniProt Q9Y5S2)	1 µM	3%
ERBB4 (Homo sapiens, UniProt Q15303)	1 µM	-3%
FGFR1 (Homo sapiens, UniProt P11362)	1 µM	98%
Tyrosine-protein kinase Lyn, isoform A (LYN, Homo sapiens, UniProt P07948)	1 µM	13%
FGFR3 (Homo sapiens, UniProt P22607)	1 µM	97%
TTK (Homo sapiens, UniProt P33981)	1 µM	-2%
MAPKAPK2 (Homo sapiens, UniProt P49137)	0.1 µM	4%
NEK2 (Homo sapiens, UniProt P51955)	0.1 µM	-8%
5'-AMP-activated protein kinase catalytic subunit alpha-1, with beta1, gamma1 (PRKAA1, Homo sapiens, UniProt Q13131)	1 µM	-1%
ABL1 (Homo sapiens, UniProt P00519)	0.1 µM	1%
PKN2 (Homo sapiens, UniProt Q16513)	1 µM	0%
LATS2 (Homo sapiens, UniProt Q9NRM7)	0.1 µM	0%
IRAK1 (Homo sapiens, UniProt P51617)	1 µM	-8%
EPHB1 (Homo sapiens, UniProt P54762)	0.1 µM	-1%
TSSK2 (Homo sapiens, UniProt Q96PF2)	1 µM	5%
EPHA8 (Homo sapiens, UniProt P29322)	0.1 µM	5%
CSF1R (Homo sapiens, UniProt P07333)	1 µM	95% and > 90%
MUSK (Homo sapiens, UniProt O15146)	0.1 µM	4%
RPS6KA1 (Homo sapiens, UniProt Q15418)	1 µM	-1%

A few entries again (series 4):
target	setting	inhibition
MAPKAPK2 (Homo sapiens, UniProt P49137)	0.1 µM	4%
CDC42BPB (Homo sapiens, UniProt Q9Y5S2)	1 µM	3%
SIK1 (Homo sapiens, UniProt P57059)	0.1 µM	-2%
ABL1 (Homo sapiens, UniProt P00519)	0.1 µM	1%
TSSK2 (Homo sapiens, UniProt Q96PF2)	1 µM	5%
EPHB1 (Homo sapiens, UniProt P54762)	0.1 µM	-1%
FGFR1 (Homo sapiens, UniProt P11362)	1 µM	98%
IRAK1 (Homo sapiens, UniProt P51617)	1 µM	-8%
